Experimental data gathered from unrelated publications.
Protocols differ between the studies behind these lines. Several values in a cell are separate wells, animals, samples, runs or records. Numbers after ± are the reported error.
TDP1: Tyrosyl-DNA phosphodiesterase 1 (TDP1, Homo sapiens, UniProt Q9NUW8)
CASP6: Caspase-6 (CASP6, Homo sapiens, UniProt P55212)
Gria1: Glutamate receptor 1 (Gria1, Rattus norvegicus, UniProt P19490)
T1: RNA, abasic bulge mismatch; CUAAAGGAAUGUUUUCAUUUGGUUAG
T2: RNase P RNA (Methanobrevibacter smithii); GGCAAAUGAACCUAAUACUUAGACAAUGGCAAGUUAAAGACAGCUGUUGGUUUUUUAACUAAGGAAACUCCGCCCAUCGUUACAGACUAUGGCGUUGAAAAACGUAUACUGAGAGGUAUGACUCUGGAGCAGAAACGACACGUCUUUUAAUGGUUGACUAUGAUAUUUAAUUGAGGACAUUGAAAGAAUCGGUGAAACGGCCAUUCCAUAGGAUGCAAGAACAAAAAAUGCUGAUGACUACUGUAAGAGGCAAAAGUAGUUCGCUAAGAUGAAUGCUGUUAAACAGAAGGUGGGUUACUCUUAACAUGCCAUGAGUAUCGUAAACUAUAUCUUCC

COC(=O)c1cccc(C=NOCc2ccc3nc(-c4ccccc4)c(Nc4ccc(C(=O)O)cc4)n3c2)c1O (mixture of isomers)
inhibition (TDP1; enzyme activity, inhibitor; 100 µM, unpurified compound): 70.5%

CCCCCC=CC=C1C(=O)C=CC1CC=CCCCC(=O)O (stereo not shown)
isoTOP-ABPP competition ratio (Perilipin-3 (PLIN3, Homo sapiens, UniProt O60664); competitive isoTOP-ABPP, measured: M6PRBP1 cysteine peptide; proteome, soluble, MDA-MB-231; 100 µM, with: iodoacetamide probe; baseline: DMSO over compound-treated, higher = stronger cysteine blockade): 4.9

Nc1nnc(-c2ccccc2O)cc1N1CCNCC1
cooperativity factor alpha (Protein polybromo-1, BD5 (PBRM1, Homo sapiens, UniProt Q86U86); ternary complex binding, TR-FRET competition; with: VCB complex): 1

CCCC[C@H](NC(C)=O)C(=O)N[C@@H](CCC(=O)O)C(=O)N[C@@H](CO)C(=O)N[C@@H](CC(=O)O)C(=O)COC(=O)c1c(C)cccc1C
kinact/KI (CASP6; enzyme activity, inhibitor): 48000 M⁻¹ s⁻¹

COC(=O)Cc1cc2c(cc1C(=O)c1ccccc1I)OCO2
current amplitude (Gria1; glutamate-evoked current, whole-cell patch clamp; HEK-293T; concentration not given, pH 7.4, holding potential -60 mV, with: 10 mM glutamate): 612 ± 59 pA

CCCCCCCO[C@H]1O[C@H](CO)[C@@H](O)[C@H](O)[C@@H]1O
binding stoichiometry (Type 1 fimbrin D-mannose specific adhesin, lectin domain (fimH, Escherichia coli K-12, UniProt P08191); isothermal titration calorimetry; concentration not given, 25 °C): 1 ± 0.02

Cc1cc(C=NOCc2ccc(-c3nc4cc(-c5ccccc5)ccn4c3Nc3ccc(C(=O)O)cc3)cc2)sc1C (mixture of isomers)
inhibition (TDP1; enzyme activity, inhibitor; 100 µM, unpurified compound): 61.8%

COc1ccc(C(N)=O)cn1
ΔTm (Nicotinamide N-methyltransferase, SAM-bound (NNMT, Homo sapiens, UniProt P40261); differential scanning fluorimetry; 1 mM, with: 100 µM SAM): 4.1 °C

Cc1ccc2ccc(NC(=O)OCCCN(CCCOC(=O)Nc3ccc4ccc(C)nc4n3)Cc3ccc(/N=N/c4ccc(CN(CCCOC(=O)Nc5ccc6ccc(C)nc6n5)CCCOC(=O)Nc5ccc6ccc(C)nc6n5)cc4)cc3)nc2n1
binding (T1, RNA, abasic bulge mismatch; thermal melting; before irradiation): no binding

CC(C)[C@@H]1NC(=O)[C@H](Cc2ccccc2)NC(=O)CSC[C@@H](C(N)=O)NC(=O)[C@H](CCC(=O)O)NC(=O)[C@H](CO)NC(=O)[C@H](Cc2c[nH]c3cccc(Cl)c23)NC(=O)[C@H](C2CCCCC2)NC(=O)[C@H](C(C)C)NC(=O)[C@H](Cc2ccc(O)cc2)NC(=O)[C@H](CC(=O)O)NC(=O)[C@H](Cc2c[nH]c3ccccc23)NC(=O)[C@H](Cc2ccc(N)nc2)NC(=O)[C@H](Cc2c[nH]c3ccc(Cl)cc23)NC(=O)[C@H](CCC(=O)O)NC1=O
remaining activity (Interleukin-1 receptor-like 2 (IL1RL2, Homo sapiens, UniProt Q9HB29); reporter gene (SEAP), inhibitor, HEK-Blue IL-36R reporter; HEK-Blue IL-36R cells; 0.41 µM, 6 h, with: IL-36γ 0.3 ng/mL): 38.3%

CN(C)C=C(C=NOCc1ccc2nc(-c3ccccc3)c(Nc3ccc(C(=O)O)cc3)n2c1)c1ncc(C(F)(F)F)cc1Cl
inhibition (TDP1; enzyme activity, inhibitor; 100 µM, unpurified compound): 21%

CCCCCC(O)/C=C/C=O (stereo not shown)
isoTOP-ABPP competition ratio (AH receptor-interacting protein (Homo sapiens, UniProt O00170); competitive isoTOP-ABPP; proteome, soluble, MDA-MB-231; 100 µM, with: iodoacetamide probe; baseline: DMSO over compound-treated, higher = stronger cysteine blockade): 1.8

CCCCCCOc1ccc(C(=O)OCC[N+]2(C)CC=CCC2)cc1 (stereo not shown)
basal binding (Muscarinic acetylcholine receptor M5 (CHRM5, Homo sapiens, UniProt P08912); membranes; 1 µM, 15 h, no carbachol; baseline: control): 1.19 ± 0.04 fold

CC(=O)N[C@@H](CC(C)C)C(=O)N[C@@H](CCC(=O)O)C(=O)N[C@@H](CCC1CCCCC1)C(=O)N[C@@H](CC(=O)O)C(=O)COC(=O)c1c(C)cccc1C
kinact/KI (CASP6; enzyme activity, inhibitor): 493000 M⁻¹ s⁻¹

O=C(Cc1ccc(OCc2ccccc2)cc1)NC1(C(=O)O)CCN(C(=O)c2ccc(-c3cccc(Cl)c3)cc2)CC1
activity vs control (Testis-specific serine/threonine-protein kinase 4 (TSSK4, Homo sapiens, UniProt Q6SA08); enzyme activity, inhibitor; 10 µM): 102%

CC(C)Oc1cc(Cl)ccc1CNc1cc(-c2ccccc2)nc2ncnn12
cAMP luminescence (G-protein coupled receptor 3 (GPR3, Homo sapiens, UniProt P46089, V155A); cAMP level, cAMP GloSensor; 10 nM; higher = more cAMP): 33000 a.u. and 24100 a.u. and 30100 a.u. and 23600 a.u.

CCCCCCCCCCCCC/C=C/C=O
isoTOP-ABPP competition ratio (Cleavage and polyadenylation specificity factor subunit 3 (CPSF3, Homo sapiens, UniProt Q9UKF6); competitive isoTOP-ABPP; Ramos soluble proteome; 100 µM, with: iodoacetamide probe; baseline: DMSO over compound-treated, higher = stronger cysteine blockade): 1.4

CCOc1cccc2ccc(C=NOCc3ccc4nc(-c5ccccc5)c(Nc5ccc(C(=O)O)cc5)n4c3)nc12 (mixture of isomers)
inhibition (TDP1; enzyme activity, inhibitor; 100 µM, unpurified compound): -20.6%

COC(=O)Cc1cc2c(cc1C(=O)c1ccc(Cl)cc1Cl)OCO2
current amplitude after recovery (Gria1; glutamate-evoked current, whole-cell patch clamp; HEK-293T; concentration not given, glutamate alone after washout, with: glutamate): 939 ± 42 pA

O=C1c2sc(-c3ccc(N4CCC(CO)CC4)nc3F)nc2CCN1c1cccnc1
SPR response (TAR DNA-binding protein 43, aggregated (TARDBP, Homo sapiens, UniProt Q13148); binding, surface plasmon resonance; brain-derived TDP-43 aggregates; 9.38 nM): 1.92 RU

COc1ccc2ccccc2c1C=NOCc1ccc(-c2nc3cc(-c4ccccc4)ccn3c2Nc2ccc(C(=O)O)cc2)cc1 (mixture of isomers)
inhibition (TDP1; enzyme activity, inhibitor; 100 µM, unpurified compound): 0.1%

COc1ccc(OC)c(C2=Nn3c(nnc3-c3ccccc3)SC2)c1
Hill slope (Uncharacterized protein (Trypanosoma brucei brucei, UniProt Q386Q8); inhibitor, coupled colorimetric; Trypanosoma brucei): 0.64

CCN1CCN(Cc2ccc(C(=O)Nc3ccc(C)c(NCc4cnc5[nH]ccc5c4OC)c3)cc2C(F)(F)F)CC1
remaining binding (Tyrosine-protein kinase ABL1, phosphorylated (ABL1, Homo sapiens, UniProt P00519, Y253F); binding, competition with immobilised ligand; 1 µM): 1.1%

O=C(O)c1ccc(Nc2c(-c3ccccc3)nc3ccc(CON=Cc4ccc(F)c(C(=O)O)c4)cn23)cc1 (mixture of isomers)
inhibition (TDP1; enzyme activity, inhibitor; 100 µM, unpurified compound): 27%

CC(=O)N[C@@H](CO)C(=O)N[C@H](C(=O)N[C@@H](CCC(=O)O)C(=O)N[C@H](C(=O)N[C@@H](CC(=O)O)C(=O)COC(=O)c1c(C)cccc1C)C(C)C)C(C)(C)C
kinact/KI (CASP6; enzyme activity, inhibitor): 421000 M⁻¹ s⁻¹

N#CN1CC[C@H](C(=O)Nc2nc3c(s2)CN(C(=O)CN=[N+]=[N-])CC3)C1
total spectral count (Cofilin-1 (Homo sapiens, UniProt P23528); click pull-down LC-MS/MS; HEK293T cells): 2

Cc1ccc2c(c1Br)C(O)(CC(=O)c1ccc(F)cc1)C(=O)N2 (stereo not shown)
Hill slope (Inorganic pyrophosphatase (ppa, Escherichia coli, UniProt P0A7A9); enzyme activity; counter-screen): -0.27

CN(C)CCCSC(=S)N1CCN(C(=O)/C=C/c2coc3ccccc3c2=O)CC1
relative protein level (Nucleoprotein (N, Tomato spotted wilt virus, UniProt P25999); immunoblot, measured: N protein; concentration not given, 160 min, 25 °C, with: RNA; baseline: level at 0 min): 0.654 and 0.746 and 0.69

COc1cccc2c(N3CCC(CCP(=O)(O)O)CC3)ncnc12
kon (Ectonucleotide pyrophosphatase/phosphodiesterase family member 1 (Enpp1, Mus musculus, UniProt P06802); binding, SPR): 1.04e+07 M⁻¹ s⁻¹

CN(Cc1cc(C2CC2)on1)C(=O)c1cccc(-c2ccc3c(c2)CCO3)c1
reaction rate (Acetyl-CoA synthetase (Cryptococcus neoformans, UniProt J9VFT1); enzyme activity, inhibitor, coupled pyrophosphate; 25 µM; higher is more activity): 0.000863 a.u.

CC(=O)N[C@@H](CO)C(=O)N[C@@H](Cc1ccccc1)C(=O)N[C@@H](C)C(=O)N[C@@H](CC(=O)O)C(=O)COC(=O)c1c(C)cccc1C
kinact/KI (CASP6; enzyme activity, inhibitor): 1100 M⁻¹ s⁻¹

C[C@](C(=O)NC1CCOCC1)(c1cncnc1)N(C(=O)[C@H](F)Cl)c1ccc(OC(F)(F)Cl)cc1
remaining activity (Kallikrein-1 (KLK1, Homo sapiens, UniProt P06870); enzyme activity, inhibitor; 10 µM): 106%

COc1ccccc1[C@@]1(O)C[C@@H](c2ccc(C)cc2)N[C@@H](c2ccc(C)cc2)C1
Ki (T2, RNase P RNA (Methanobrevibacter smithii); progress curve cleavage assay; with: pre-tRNA): 102 µM

N[C@@H](Cc1c[nH]c2cccc(OCc3ccccc3)c12)C(=O)O
Hill slope (Large neutral amino acids transporter small subunit 1 (SLC7A5, Homo sapiens, UniProt Q01650); [3H]-L-leucine uptake; HT-29): -0.736

Cc1ccc(S(=O)(=O)N2CC(NC(=O)c3ccc(C#N)cc3)C2=O)cc1 (stereo not shown)
IC50 (Rhomboid protease GlpG (glpG, Escherichia coli, UniProt P09391); enzyme activity, inhibitor, gel-based chimeric protein substrate): inactive

Cc1nn(-c2ccccc2Cl)c(Cl)c1C=NOCc1ccc2nc(-c3ccccc3)c(Nc3ccc(C(=O)O)cc3)n2c1
inhibition (TDP1; enzyme activity, inhibitor; 100 µM, unpurified compound): 46.4%

CC(C)C[C@@H]1NC(=O)[C@H](Cc2ccccc2)NC(=O)[C@H](CO)NC(=O)[C@H](Cc2ccccc2)NC(=O)CSC[C@@H](C(=O)N(C)[C@@H](Cc2ccccc2)C(N)=O)NC(=O)[C@H](Cc2c[nH]c3ccccc23)NC(=O)[C@H](Cc2c[nH]cn2)NC(=O)[C@H](Cc2ccc(O)cc2)NC1=O
ΔTm (Bromodomain-containing protein 4, BD1 (BRD4, Homo sapiens, UniProt O60885); thermal stability, DSF; 100 µM): 0.69 °C

C#CCOC(=O)[C@]1(C)C=C(C(=O)OC(C)(C)C)C(=O)CC1
normalized kinase activity (Mitogen-activated protein kinase 1 (MAPK1, Homo sapiens, UniProt P28482); enzyme activity, D-SENSOR; 0.1829 µM, single replicate): 0.792 and 0.9 and 0.994

Fc1ccc2nc(Nc3ccc(F)c(F)c3)nc(NC3CCCCC3)c2c1
bias factor (Beta-2 adrenergic receptor (ADRB2, Homo sapiens, UniProt P07550); β-arrestin2 recruitment, PathHunter and GloSensor; baseline: GloSensor IC50 over PathHunter IC50): 32 fold

O=C(O)c1ccc(Nc2c(-c3ccc(CON=Cc4cccn4Cc4cnc(Cl)s4)cc3)nc3cc(-c4ccccc4)ccn23)cc1 (mixture of isomers)
inhibition (TDP1; enzyme activity, inhibitor; 100 µM, unpurified compound): 39.1%

NC(=O)c1cccc(CN(Cc2ccc(Cl)c(Cl)c2)C(=O)NC(CN2CCCCC2)c2ccccc2)c1 (stereo not shown)
log(tau/KA) (Kappa-type opioid receptor (OPRK1, Homo sapiens, UniProt P41145); Gi signalling): 6.74

COC(=O)Cc1cc2c(cc1C(=O)c1ccccc1)OCO2
current amplitude after recovery (Gria1; glutamate-evoked current, whole-cell patch clamp; HEK-293T; concentration not given, glutamate alone after washout, with: glutamate): 867 ± 38 pA

O=[N+]([O-])c1cc(Br)cc([N+](=O)[O-])c1NS(=O)(=O)c1ccc(Br)cc1
phosphatase activity (HAB1 (Arabidopsis thaliana, UniProt Q9CAJ0); inhibitor; 100 µM, no PYL receptor; higher = more activity): 1.01 a.u. and 1.13 a.u. and 0.971 a.u.

A few entries again:
CC(C)Oc1cc(Cl)ccc1CNc1cc(-c2ccccc2)nc2ncnn12
cAMP luminescence (G-protein coupled receptor 3 (GPR3, Homo sapiens, UniProt P46089, V155A); cAMP level, cAMP GloSensor; 10 nM; higher = more cAMP): 33000 a.u. and 24100 a.u. and 30100 a.u. and 23600 a.u.

CCCCCCCCCCCCC/C=C/C=O
isoTOP-ABPP competition ratio (Cleavage and polyadenylation specificity factor subunit 3 (CPSF3, Homo sapiens, UniProt Q9UKF6); competitive isoTOP-ABPP; Ramos soluble proteome; 100 µM, with: iodoacetamide probe; baseline: DMSO over compound-treated, higher = stronger cysteine blockade): 1.4

CCOc1cccc2ccc(C=NOCc3ccc4nc(-c5ccccc5)c(Nc5ccc(C(=O)O)cc5)n4c3)nc12 (mixture of isomers)
inhibition (TDP1; enzyme activity, inhibitor; 100 µM, unpurified compound): -20.6%

COC(=O)Cc1cc2c(cc1C(=O)c1ccc(Cl)cc1Cl)OCO2
current amplitude after recovery (Gria1; glutamate-evoked current, whole-cell patch clamp; HEK-293T; concentration not given, glutamate alone after washout, with: glutamate): 939 ± 42 pA
